Measured values from different studies.
Every numbered part comes from another study and shows a few of its results, in no order. Substitutions count along the parent as printed.

Sample 1
Target: Ras GTPase-activating protein-binding protein 1, full length (G3BP1, Homo sapiens, UniProt Q13283)
UniProt Q13283, sequence (whole entry, looked up): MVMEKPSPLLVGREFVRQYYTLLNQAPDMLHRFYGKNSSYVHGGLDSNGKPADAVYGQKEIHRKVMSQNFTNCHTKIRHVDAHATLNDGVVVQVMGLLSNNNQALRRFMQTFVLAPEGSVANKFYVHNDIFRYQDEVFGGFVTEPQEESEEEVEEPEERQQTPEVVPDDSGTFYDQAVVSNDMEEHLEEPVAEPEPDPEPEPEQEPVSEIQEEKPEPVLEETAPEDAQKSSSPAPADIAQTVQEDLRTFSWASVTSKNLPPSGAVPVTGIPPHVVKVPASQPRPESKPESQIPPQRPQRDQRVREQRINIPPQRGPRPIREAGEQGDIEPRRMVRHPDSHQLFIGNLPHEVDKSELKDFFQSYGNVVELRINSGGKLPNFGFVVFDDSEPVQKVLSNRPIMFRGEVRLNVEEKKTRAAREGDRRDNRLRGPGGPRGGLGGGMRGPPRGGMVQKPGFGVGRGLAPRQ
Method: RNA Bind-n-Seq
Form: RNA
Matrix: in vitro
Concentration: 200 nM
Notes: whole 134-nt RNA, ends assumed
Together with: 150 mM KCl
Baseline: input library
Direction: higher = stronger binding
Endpoint: log2 enrichment
All sequences stand within: GGGAGUUCUACAGUCCGACGAUC … UGGAAUUCUCGGGUGUCAAGG
UCAAGUCCUGUGCUACACAUCGUAUGUACCGAAUCGGAGGUUUUUGGAAAAAGGAAAGUAUUAUGUUACGCCGUUCGGAUCUGCACUUCC: -1.05
CCUGUGCUACACAUCGUAUGUACCGAAUCGGGGAAAAAGGGGUUUGGGGAAAAAAAGGGGAAAGUAUUAUGUUACGCCGUUCGGAUCUGC: 0.124
AAGUCCUGUGCUACACAUCGUAUGUACCGAAUCGGUUUUUUUGGUUUUUUUGGAGGAAAGUAUUAUGUUACGCCGUUCGGAUCUGCACUU: -0.982
AGUCCUGUGCUACACAUCGUAUGUACCGAAUCGGGAAAAGGGGAAAAGGGAAAAGGGAAAGUAUUAUGUUACGCCGUUCGGAUCUGCACU: 0.0418
GUCCUGUGCUACACAUCGUAUGUACCGAAUCGGGUUUUUGGGUUUGGGAAAAAAAGGGAAAGUAUUAUGUUACGCCGUUCGGAUCUGCAC: -0.72
AGUCCUGUGCUACACAUCGUAUGUACCGAAUCGGUUUUUGGUUUUUGGAAAAAAAGGAAAGUAUUAUGUUACGCCGUUCGGAUCUGCACU: -1.32
UCAAGUCCUGUGCUACACAUCGUAUGUACCGAAUCGGCCCGGGGCCCGGGCCCGGAAAGUAUUAUGUUACGCCGUUCGGAUCUGCACUUC: -1.19
CCUGUGCUACACAUCGUAUGUACCGAAUCGGGGUUUUUGGGGUUUGGGGUUUUUUUGGGGAAAGUAUUAUGUUACGCCGUUCGGAUCUGC: 0.242

Sample 2
Target: ABI1, truncated, D143A, DHFR fusion (Arabidopsis thaliana)
Method: DHFR PCA, deep sequencing
Matrix: yeast
Notes: methotrexate growth selection, single substitutions
Together with: (+)-ABA 200 µM
Baseline: wild-type fitted maximum
Direction: higher = stronger binding
Endpoint: relative binding score
Starting sequence: PYL1, truncated, DHFR fusion (Arabidopsis thaliana); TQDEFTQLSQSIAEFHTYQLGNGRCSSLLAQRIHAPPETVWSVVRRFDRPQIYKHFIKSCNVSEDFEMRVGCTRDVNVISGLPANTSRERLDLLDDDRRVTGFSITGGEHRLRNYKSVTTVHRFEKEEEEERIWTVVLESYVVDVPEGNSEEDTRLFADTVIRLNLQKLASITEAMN
G107I: 9.19%
L112M: 93%
L20E: 101%
D65T: 97.9%
S87D: -13.8%
R111T: 31.4%
N149S: 94.8%
I105M: 78.2%

Sample 3
Target: PABPC1L2, full length, GST fusion (mouse, UniProt A0ABA7IW68)
Method: RNAcompete
Form: RNA
Matrix: in vitro
Concentration: 20 nM
Notes: 7-mer, probes averaged, single round
Baseline: mean of 7-mers
Direction: higher = stronger binding
Endpoint: 7-mer Z-score
Construct (chain): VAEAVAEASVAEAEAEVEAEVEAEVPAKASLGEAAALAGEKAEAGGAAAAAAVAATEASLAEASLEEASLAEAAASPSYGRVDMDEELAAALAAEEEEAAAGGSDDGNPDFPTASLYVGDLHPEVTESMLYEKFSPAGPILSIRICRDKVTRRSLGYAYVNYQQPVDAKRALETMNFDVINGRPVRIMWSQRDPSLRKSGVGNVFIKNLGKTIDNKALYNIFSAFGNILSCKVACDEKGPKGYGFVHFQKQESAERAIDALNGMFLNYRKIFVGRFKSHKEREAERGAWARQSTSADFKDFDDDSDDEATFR
UACGAUU: -0.242
CUAAACA: 1.72
AAGAGGU: 0.579
UAGAGAA: 0.245
AAAAACG: 14.7
UGUUACG: -0.329
GUAUAUA: -0.00833
AAGGGCU: 0.387
GAGCUUC: -0.222
GGUGUAA: 0.291
CCCAUAC: -0.269
UAAUCCC: -0.345
CGUCCCA: -0.209

Mixed results
PhoQ, residues 284 288 289 292 302 303 ALSMDL — fold induction (PhoP, residues 12 14 15 18 19 GHCSL (Escherichia coli, UniProt P23836); Sort-seq, refers to: YFP reporter; E. coli; PhoQ-PhoP variant library, together with: 10 µM Mg2+; baseline: high Mg2+ state, higher = stronger signaling): 17.9

For quick reference, copied from above (sample 3):
AAGAGGU: 0.579
UAAUCCC: -0.345
CUAAACA: 1.72
